Published values pooled from the literature.
A part holds a random share of what one study measured. pKi: −log10 of the molar value.
UniProt P18089, sequence (whole entry, looked up): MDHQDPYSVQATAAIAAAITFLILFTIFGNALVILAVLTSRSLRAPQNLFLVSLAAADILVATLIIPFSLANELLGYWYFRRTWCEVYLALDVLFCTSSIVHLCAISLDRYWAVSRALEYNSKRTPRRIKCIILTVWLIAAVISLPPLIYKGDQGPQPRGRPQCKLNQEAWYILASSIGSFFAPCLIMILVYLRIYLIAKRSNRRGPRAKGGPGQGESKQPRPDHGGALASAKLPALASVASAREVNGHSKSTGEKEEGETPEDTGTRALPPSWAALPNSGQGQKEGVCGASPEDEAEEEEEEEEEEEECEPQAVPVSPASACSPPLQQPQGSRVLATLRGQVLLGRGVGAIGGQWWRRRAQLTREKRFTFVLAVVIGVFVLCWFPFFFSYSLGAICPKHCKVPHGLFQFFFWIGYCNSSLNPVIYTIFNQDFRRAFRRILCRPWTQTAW

Block 1
Host: mouse
Matrix: microsomes or S9
Concentration: 2 µM
Time: 0.5 h
| Compound | remaining compound |
| --- | --- |
| O=C(c1c(OCC2CC2)cc(=O)n2c1CCOCC2)N1CCN(C2CCCCC2)CC1 | 48.3% |
| CCc1nc(NCCc2ccncc2)c2c3c(sc2n1)CCCC3 | 0.738% |
| Cc1cc(N2CCC(C(=O)NC(C)(C)C)CC2)nc(Nc2ccc(C#N)c(C(F)(F)F)c2)n1 | 16.6% |
| Cc1noc2nc3c(c(C(=O)N4CCC5(CCCN(C)C5=O)C4)c12)CCC3 (centres unmarked) | 46.7% |
| CS(=O)(=O)NCC1CCC(C(=O)NCC2CCS(=O)(=O)C2)CC1 (centres unmarked) | 83.5% |
| O=C(Nc1cc(F)cc(F)c1)N1CCC(O)(CO)C1 (centres unmarked) | 68.6% |
| COCCN1CCS(=O)(=O)c2c(Cl)c(F)nc(Oc3ccc(OC)cc3)c21 | 44.6% |
| CCCNC(=O)c1cn(-c2cc(-c3nc(C(C)(C)C)no3)ccn2)cn1 | 56% |
| COc1ccccc1N1C[C@@H]2C[C@@H](c3nccn3-c3cccc(C)c3)N3CCC[C@@]23C1=O | 27.6% |
| CN1C(=O)c2cccc(-c3cc(Cl)cc(Cl)c3)c2C1(C)C | 39.7% |
| O=C(C1Cc2cc(Cl)ccc2O1)N1CCCC(O)(c2ccc(F)cc2)CC1 (centres unmarked) | 10.2% |
| Cc1c[nH]c(CN(C)C(=O)c2cc(CC(C)C)no2)n1 | 0.157% |

Block 2
Cell line: A-375
Concentration: 100 µM
Time: 36 h
| Structure (SMILES) | viability |
| --- | --- |
| CC(CN(C)C)CN1c2ccccc2CCc2ccccc21 (centres unmarked) | -1.21% |
| O=c1c(-c2ccc(O[C@@H]3O[C@H](CO)[C@@H](O)[C@H](O)[C@H]3O)cc2)coc2cc(O)cc(O)c12 | 89.7% |
| OC[C@@H](O)[C@H](O)[C@@H](O)CO | 117% |
| CC1=NN(c2ccc(C)c(C)c2)C(=O)/C1=N\Nc1cccc(-c2cccc(C(=O)O)c2)c1O | 40.4% |
| COC(=O)C1=C(C)NC(C)=C(C(=O)OCC(C)C)C1c1ccccc1[N+](=O)[O-] (centres unmarked) | -1.31% |
| Cc1cnc(NC(=O)C2=C(O)c3ccccc3S(=O)(=O)N2C)s1 | 87.6% |
| O=S(=O)(O)CCS | 92.3% |
| CC(/C=C/C=C(\C)C(=O)O[C@@H]1O[C@H](CO[C@@H]2O[C@H](CO)[C@@H](O)[C@H](O)[C@H]2O)[C@@H](O)[C@H](O)[C@H]1O)=C\C=C\C=C(C)\C=C\C=C(/C)C(=O)O[C@@H]1O[C@H](CO[C@@H]2O[C@H](CO)[C@@H](O)[C@H](O)[C@H]2O)[C@@H](O)[C@H](O)[C@H]1O | 96.8% |

Block 3
Target: Fibroblast growth factor receptor 4 (FGFR4, Homo sapiens, UniProt P22455)
UniProt P22455, sequence (whole entry, looked up): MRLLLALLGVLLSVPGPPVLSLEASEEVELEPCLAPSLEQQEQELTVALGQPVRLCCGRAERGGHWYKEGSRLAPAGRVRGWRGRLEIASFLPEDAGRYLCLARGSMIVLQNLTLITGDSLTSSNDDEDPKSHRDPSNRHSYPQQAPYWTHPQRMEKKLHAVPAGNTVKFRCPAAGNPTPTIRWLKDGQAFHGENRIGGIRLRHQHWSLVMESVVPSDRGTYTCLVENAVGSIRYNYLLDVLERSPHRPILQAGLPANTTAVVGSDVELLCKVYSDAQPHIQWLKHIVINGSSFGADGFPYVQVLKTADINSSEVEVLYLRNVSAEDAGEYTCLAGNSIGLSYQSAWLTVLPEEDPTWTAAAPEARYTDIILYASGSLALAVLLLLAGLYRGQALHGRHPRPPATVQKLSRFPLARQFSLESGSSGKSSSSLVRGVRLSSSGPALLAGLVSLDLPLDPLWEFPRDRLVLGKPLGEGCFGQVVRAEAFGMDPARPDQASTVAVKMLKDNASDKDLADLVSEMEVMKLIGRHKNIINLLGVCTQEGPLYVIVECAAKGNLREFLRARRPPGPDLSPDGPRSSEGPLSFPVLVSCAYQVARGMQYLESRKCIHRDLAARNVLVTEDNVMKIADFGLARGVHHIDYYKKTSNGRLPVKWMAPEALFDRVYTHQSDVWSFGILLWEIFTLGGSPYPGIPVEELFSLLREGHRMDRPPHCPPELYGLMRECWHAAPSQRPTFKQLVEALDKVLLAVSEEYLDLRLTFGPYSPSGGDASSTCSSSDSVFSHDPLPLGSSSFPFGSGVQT
Effect on: enzyme activity
Mode: inhibitor
Concentration: 0.5 µM
Reference: control
| Structure (SMILES) | remaining activity [%] |
| --- | --- |
| Cc1cncc2cccc(S(=O)(=O)N3CCCN(C(=O)CN)C[C@@H]3C)c12 | 79.5 |
| COc1cc(Nc2c(C#N)cnc3cc(OCCCN4CCN(C)CC4)c(OC)cc23)c(Cl)cc1Cl | 94.1 |
| CCCC(=O)Oc1ccc2[nH]c(C(=O)c3cc4ccccc4[nH]3)cc2c1 | 90.9 |
| N#CC(=C(N)Sc1ccc(N)cc1)c1ccccc1C(F)(F)F | 108 |
| Nc1ncnc2c1cnn2-c1ccccc1 | 94.8 |
| O=C1Cc2c([nH]c3ccc([N+](=O)[O-])cc23)-c2ccccc2N1 | 90.6 |
| Cc1cc(Nc2nc(-c3ccccc3)nc3ccccc23)n[nH]1 | 81.9 |
| Fc1ccc(-c2nc3n(c2-c2ccncc2)CCS3)cc1 | 82.8 |
| O=S(=O)(NCCNC/C=C/c1ccc(Br)cc1)c1cccc2cnccc12 | 85.3 |
| Nc1nccc(-c2c(-c3ccc(F)cc3)ncn2C2CCNCC2)n1 | 85.7 |
| Oc1ccc(Nc2nc(-c3ccc(Cl)cc3)cs2)cc1 | 71.6 |
| CC#CC(=O)Nc1cc2c(Nc3ccc(F)c(Cl)c3)ncnc2cn1 | 102 |
| CSc1nc(-c2ccnc(N[C@@H](C)c3ccccc3)c2)c(-c2ccc(F)cc2)[nH]1 (racemic) | 102 |
| CC[n+]1c(/C=C/N(C)c2ccccc2)n(-c2ccccc2)c2ccc(-c3nc4ccccc4s3)cc21 | 84.1 |
| CC(C)(C)n1nc(Cc2cccc3ccccc23)c2c(N)ncnc21 | 88.4 |
| O=C1NC(=O)C(c2c[nH]c3ccccc23)=C1c1c[nH]c2ccccc12 | 87.8 |
| NC(=O)c1ccc(N(C(N)=O)c2c(F)cccc2F)nc1-c1ccc(F)cc1F | 96.2 |
| Nc1nc(Nc2ccc(S(N)(=O)=O)cc2)nn1C(=O)c1c(F)cccc1F | 90.3 |
| CCc1[nH]c(-c2ccc(OC)cc2)nc1-c1ccncc1 | 95.9 |
| CC(=O)c1ccc(N2CCOCC2)cc1O | 108 |

Further values, each from its own experiment
AAK1: AP2-associated protein kinase 1 (AAK1, Homo sapiens, UniProt Q2M2I8)
UniProt Q2M2I8, sequence (whole entry, looked up): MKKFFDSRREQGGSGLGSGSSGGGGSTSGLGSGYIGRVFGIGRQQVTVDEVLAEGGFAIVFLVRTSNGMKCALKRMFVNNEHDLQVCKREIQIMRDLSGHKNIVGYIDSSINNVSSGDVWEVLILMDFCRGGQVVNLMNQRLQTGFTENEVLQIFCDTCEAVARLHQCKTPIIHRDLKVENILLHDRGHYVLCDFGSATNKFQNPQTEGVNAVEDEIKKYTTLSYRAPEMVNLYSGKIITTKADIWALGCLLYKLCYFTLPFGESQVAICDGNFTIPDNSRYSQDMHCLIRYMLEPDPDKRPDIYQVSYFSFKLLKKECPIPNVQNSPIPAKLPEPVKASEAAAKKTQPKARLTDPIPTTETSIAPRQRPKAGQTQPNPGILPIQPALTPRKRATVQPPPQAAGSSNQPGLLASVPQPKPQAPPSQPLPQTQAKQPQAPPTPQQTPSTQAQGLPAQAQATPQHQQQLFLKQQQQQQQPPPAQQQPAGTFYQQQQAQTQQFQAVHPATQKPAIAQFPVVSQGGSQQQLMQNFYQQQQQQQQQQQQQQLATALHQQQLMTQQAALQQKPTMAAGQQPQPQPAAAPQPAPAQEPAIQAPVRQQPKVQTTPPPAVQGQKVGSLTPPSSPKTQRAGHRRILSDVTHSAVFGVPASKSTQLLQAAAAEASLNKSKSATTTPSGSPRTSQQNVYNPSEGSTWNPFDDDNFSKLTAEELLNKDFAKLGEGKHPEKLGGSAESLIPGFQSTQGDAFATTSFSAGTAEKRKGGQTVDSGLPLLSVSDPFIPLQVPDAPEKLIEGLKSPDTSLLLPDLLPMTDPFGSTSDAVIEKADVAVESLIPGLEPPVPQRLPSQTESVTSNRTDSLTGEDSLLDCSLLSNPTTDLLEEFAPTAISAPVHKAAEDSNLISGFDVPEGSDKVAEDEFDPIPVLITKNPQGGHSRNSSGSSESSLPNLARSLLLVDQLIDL
| Structure (SMILES) | tested on | test | conditions | endpoint | result |
| --- | --- | --- | --- | --- | --- |
| C[C@@H]1CN(c2cc(-c3nn(C)c4ccc(OC5(C)CC5)cc34)ncn2)C[C@H](C)O1 | U2OS, HEK293T, MRC-9 | high-content imaging | concentration not given, 24 h, recommended concentration, one cell line | increased mitochondrial mass | > 50% |
| C[C@H](c1cccc(C#N)c1)n1cc(Cl)cc(C(N)=O)c1=N | ADRA2B (Homo sapiens, UniProt P18089) | binder, radioligand binding | – | pKi | 6.29 |
| N#CC1(c2ccccn2)CCN(Cc2cc(C(=O)O)c(=O)n3ccccc23)CC1 | AAK1 | binding | 1 µM | remaining binding | 100% |
| Cn1cncc1[C@@](O)(COc1ccc(C#N)cc1-c1ccc(OC(F)(F)F)cc1)c1ccc(C#N)cc1 | AAK1 | binding | 1 µM | remaining binding | 94% |
